Published values of several laboratories.
Each numbered part is a random draw from the data of one study; scales do not carry over between parts.
Sequence of UniProt Q13546 (whole entry, looked up): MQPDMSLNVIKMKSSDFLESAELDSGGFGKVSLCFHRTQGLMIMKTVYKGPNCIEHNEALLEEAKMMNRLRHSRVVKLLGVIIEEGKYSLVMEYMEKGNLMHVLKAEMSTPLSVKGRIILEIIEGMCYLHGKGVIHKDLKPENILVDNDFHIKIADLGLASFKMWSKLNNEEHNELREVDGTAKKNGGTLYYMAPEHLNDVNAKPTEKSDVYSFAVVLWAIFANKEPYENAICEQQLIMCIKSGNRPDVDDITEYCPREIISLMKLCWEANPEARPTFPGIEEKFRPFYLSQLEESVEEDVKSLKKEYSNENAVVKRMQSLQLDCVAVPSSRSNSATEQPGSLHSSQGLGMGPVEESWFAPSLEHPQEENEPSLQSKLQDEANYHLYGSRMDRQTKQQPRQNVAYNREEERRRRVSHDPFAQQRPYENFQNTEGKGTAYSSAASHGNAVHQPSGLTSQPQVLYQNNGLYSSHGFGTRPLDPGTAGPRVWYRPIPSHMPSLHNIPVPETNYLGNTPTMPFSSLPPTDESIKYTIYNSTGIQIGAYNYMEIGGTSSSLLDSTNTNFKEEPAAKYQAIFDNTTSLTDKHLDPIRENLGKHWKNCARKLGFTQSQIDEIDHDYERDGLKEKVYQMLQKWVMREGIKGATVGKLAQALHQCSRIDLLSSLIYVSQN
Sequence of UniProt O43781 (whole entry, looked up): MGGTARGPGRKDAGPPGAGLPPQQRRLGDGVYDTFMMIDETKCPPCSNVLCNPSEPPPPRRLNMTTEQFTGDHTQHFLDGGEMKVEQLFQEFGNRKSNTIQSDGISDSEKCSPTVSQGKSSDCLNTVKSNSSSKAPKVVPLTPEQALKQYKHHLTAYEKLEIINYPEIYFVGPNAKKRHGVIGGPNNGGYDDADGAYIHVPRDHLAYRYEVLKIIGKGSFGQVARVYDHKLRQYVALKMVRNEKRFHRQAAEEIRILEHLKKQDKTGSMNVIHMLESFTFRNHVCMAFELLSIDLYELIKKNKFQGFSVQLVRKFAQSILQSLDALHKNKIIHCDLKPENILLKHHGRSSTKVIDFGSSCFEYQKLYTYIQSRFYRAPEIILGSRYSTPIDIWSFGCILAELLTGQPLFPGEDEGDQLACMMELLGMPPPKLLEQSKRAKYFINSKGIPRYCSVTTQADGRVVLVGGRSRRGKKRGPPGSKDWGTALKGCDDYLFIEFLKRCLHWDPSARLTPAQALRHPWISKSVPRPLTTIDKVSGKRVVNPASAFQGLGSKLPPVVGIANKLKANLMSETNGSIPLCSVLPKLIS
Sequence of UniProt P06493 (whole entry, looked up): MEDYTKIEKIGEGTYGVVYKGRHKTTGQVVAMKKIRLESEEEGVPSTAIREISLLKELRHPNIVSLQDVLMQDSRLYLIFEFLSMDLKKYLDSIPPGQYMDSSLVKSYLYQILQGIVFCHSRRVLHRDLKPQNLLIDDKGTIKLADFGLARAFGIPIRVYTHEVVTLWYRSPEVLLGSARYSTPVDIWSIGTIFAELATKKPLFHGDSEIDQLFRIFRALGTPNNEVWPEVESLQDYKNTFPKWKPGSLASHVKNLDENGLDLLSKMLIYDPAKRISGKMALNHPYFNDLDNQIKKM
Sequence of UniProt Q99558 (whole entry, looked up): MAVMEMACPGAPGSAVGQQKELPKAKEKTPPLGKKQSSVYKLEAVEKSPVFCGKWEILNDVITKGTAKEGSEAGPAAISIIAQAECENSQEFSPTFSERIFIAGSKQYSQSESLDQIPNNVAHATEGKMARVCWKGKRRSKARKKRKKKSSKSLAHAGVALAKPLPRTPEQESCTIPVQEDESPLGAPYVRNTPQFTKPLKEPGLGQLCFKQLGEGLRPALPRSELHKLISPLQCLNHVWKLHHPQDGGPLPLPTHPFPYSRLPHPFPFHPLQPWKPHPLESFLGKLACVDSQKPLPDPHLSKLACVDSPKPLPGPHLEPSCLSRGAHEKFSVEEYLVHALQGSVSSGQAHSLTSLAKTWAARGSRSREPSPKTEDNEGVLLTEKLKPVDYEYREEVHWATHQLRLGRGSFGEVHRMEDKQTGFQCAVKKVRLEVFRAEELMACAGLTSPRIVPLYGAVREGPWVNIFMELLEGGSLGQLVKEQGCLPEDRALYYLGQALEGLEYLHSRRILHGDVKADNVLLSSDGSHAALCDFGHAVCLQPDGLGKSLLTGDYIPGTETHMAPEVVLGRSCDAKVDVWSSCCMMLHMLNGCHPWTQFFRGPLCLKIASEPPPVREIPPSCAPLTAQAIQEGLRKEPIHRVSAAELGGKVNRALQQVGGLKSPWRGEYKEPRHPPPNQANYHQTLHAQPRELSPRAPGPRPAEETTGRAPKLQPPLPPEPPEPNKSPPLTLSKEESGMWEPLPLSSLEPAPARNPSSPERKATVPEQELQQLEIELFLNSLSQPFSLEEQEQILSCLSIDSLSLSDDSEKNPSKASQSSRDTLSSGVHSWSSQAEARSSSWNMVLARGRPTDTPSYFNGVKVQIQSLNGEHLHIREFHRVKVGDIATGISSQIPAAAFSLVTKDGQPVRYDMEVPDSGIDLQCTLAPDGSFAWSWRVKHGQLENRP
Sequence of UniProt Q9H3Y6 (whole entry, looked up): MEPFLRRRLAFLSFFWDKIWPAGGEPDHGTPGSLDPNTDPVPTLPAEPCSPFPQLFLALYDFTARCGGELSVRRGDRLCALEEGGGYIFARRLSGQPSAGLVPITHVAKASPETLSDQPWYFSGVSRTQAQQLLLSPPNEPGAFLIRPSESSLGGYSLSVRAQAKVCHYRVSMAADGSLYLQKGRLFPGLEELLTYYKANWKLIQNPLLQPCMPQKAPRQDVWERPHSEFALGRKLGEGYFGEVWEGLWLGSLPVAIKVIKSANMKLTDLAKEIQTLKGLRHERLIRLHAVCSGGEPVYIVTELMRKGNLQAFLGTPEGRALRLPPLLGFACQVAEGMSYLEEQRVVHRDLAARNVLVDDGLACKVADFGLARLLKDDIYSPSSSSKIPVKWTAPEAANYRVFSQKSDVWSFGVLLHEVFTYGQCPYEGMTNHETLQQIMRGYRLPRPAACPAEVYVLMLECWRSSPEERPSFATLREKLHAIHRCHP
Sequence of UniProt Q13464 (whole entry, looked up): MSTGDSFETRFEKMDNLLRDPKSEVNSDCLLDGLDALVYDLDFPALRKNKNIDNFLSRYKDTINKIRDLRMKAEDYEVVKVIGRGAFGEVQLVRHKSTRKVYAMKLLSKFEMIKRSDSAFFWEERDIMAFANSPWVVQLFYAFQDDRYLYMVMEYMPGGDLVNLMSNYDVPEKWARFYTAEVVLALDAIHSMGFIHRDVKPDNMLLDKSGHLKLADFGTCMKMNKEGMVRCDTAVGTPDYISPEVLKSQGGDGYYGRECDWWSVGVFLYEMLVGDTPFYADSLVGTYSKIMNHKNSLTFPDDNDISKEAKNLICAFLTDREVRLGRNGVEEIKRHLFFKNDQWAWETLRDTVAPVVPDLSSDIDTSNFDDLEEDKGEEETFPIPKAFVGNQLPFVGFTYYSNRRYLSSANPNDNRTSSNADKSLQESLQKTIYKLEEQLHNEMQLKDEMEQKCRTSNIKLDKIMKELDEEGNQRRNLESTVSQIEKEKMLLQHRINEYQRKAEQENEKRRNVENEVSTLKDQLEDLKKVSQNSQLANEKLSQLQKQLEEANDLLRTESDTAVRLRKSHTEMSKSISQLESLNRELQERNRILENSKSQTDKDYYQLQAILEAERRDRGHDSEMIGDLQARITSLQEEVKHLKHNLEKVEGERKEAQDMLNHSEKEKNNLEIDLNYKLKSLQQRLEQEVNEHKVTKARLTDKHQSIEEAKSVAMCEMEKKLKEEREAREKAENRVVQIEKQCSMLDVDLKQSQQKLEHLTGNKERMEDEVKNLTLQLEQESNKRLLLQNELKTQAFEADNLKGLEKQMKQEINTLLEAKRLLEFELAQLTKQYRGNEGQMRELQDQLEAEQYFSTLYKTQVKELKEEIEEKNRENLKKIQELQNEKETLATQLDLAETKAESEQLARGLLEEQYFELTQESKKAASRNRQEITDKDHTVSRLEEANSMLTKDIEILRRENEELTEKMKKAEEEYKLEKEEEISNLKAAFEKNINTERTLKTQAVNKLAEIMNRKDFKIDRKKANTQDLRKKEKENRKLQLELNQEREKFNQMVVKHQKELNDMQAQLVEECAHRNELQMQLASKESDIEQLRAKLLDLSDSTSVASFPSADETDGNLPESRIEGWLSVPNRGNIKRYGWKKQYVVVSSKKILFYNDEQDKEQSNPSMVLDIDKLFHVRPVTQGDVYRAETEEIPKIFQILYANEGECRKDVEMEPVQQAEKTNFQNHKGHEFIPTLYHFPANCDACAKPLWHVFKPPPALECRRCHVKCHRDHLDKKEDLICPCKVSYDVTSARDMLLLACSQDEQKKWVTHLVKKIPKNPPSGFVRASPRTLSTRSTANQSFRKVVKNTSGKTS
Sequence of UniProt Q16644 (whole entry, looked up): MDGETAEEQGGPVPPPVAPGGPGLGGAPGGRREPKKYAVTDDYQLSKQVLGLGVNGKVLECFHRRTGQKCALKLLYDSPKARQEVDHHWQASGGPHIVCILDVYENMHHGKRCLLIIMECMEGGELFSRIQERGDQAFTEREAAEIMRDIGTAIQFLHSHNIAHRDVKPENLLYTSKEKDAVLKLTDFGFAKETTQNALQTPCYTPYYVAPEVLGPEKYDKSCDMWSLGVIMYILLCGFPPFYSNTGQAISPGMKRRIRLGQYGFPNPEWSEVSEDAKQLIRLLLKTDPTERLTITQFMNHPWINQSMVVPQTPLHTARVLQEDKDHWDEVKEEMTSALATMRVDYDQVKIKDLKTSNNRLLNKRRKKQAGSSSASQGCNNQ

Study 1 — technique: protein-binding microarray; form: double-stranded DNA, one strand shown; medium: in vitro; concentration: not given; direction: higher = stronger binding
Target: Hepatocyte nuclear factor 3-beta, forkhead domain (FOXA2, Homo sapiens, UniProt Q9Y261, residues 142-269)
Setting: k-mer, scored over probes, only values ≥0.25
Residues (chain): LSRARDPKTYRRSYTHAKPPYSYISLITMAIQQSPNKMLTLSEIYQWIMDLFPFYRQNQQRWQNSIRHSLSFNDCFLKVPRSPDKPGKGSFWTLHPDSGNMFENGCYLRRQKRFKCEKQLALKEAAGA
The E-score of `GGGTACTA` is reported as 0.253.
The E-score of `CATGTATA` is reported as 0.376.
`ACAATACT` gave an E-score of 0.342.
`GTTGACAA` gave an E-score of 0.283.
For `TATGAAAA`, the E-score was 0.268.
For `ACAACATA`, the E-score was 0.35.
For `TGTATTAA`, the E-score was 0.325.
For `ATTACCAA`, the E-score was 0.281.

Study 2 — technique: RNA Bind-n-Seq; form: RNA; medium: in vitro; concentration: 365 nM; relative to: no-protein control; direction: higher = stronger binding
Target: RNA binding protein fox-1 homolog 2, RRM domain, GST-SBP tag (RBFOX2, Homo sapiens, UniProt O43251-10, residues 100-194)
Setting: natural RNA segment, single round, ends assumed
Target sequence (chain): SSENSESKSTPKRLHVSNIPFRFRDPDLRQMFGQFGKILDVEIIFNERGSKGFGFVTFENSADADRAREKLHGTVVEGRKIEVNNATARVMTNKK
`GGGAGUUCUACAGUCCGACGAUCAGAUGAGACUGAAGACAUCAAGAAAUAAAGGAGGGCAUGCAAGUGUGGAGUAUUUACUUGCUCAGUAACUGUGACUGUUGUCUAUUGAGACCUAGCCUAGUUUUCCUGCAUGGAAUUCUCGGGUGCCAA`: “RBNS enrichment (R)” 1.02.
Under “RBNS enrichment (R)”, `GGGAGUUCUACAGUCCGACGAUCUUUUGUUUUUUUUUAAUGUGUCAACUUGGGCUCAGGCUGUAGUUGUGUUGCGUGCCUGCUUAGCAUAUACAAGGGCCUGGGACUGGGCCCCAGUAUGGAAGAAAGACUUAUGGAAUUCUCGGGUGCCAA` is recorded as 7.45.
`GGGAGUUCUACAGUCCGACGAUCUCAGUUAACUUUUUCAGCUAUUUUUAAAGUUUGUGAAUGGAGUGUUAUUUUGGACAUUCUUAAAUAUGAAUUCUCCAAAGGCAUUUAGCCUUGACUUAAUAUUAAAUCCUUGGAAUUCUCGGGUGCCAA`: “RBNS enrichment (R)” 0.59.
`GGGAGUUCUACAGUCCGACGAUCGGACUGAGAGACUCCACGCAGGCGAAUUCCCGUUUGGGGCUUUUUUUUCCUCCCUCUUUUCCCCUUGCCCCCUCUGCAGCCGGAGGAGGAGAUGUUGAGGGGAGGAGGCCUGGAAUUCUCGGGUGCCAA` — result for “RBNS enrichment (R)”: 0.253.
`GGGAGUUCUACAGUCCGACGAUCGAUAGUUAAAAAUUACUAAUUGGUUUUAUUUCCCUUCACACUCUGCCUCCCCACUUCUCCCCCCGUUACUGAAAAAUAACCAUUUUAGUGUCAGGCUAGAAAUUGAAUUGUGGAAUUCUCGGGUGCCAA` — result for “RBNS enrichment (R)”: 0.436.
`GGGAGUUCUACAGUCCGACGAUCUUGGAUCUCAUUAUCAGAAAUAUUAUUCAGCUCAAGAAAUCUGACCCCAUAUUGGAAAAUGAAUGUCCUUUAGUAUUCCUGAAGCUAAAGCUUGGGUGUCUCCUCCCAGCUGGAAUUCUCGGGUGCCAA`: “RBNS enrichment (R)” 0.392.
`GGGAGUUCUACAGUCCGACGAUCCCAUCCUGUGAGGGCAGCGGUGGCGCCCGGCAAAGUUGGAGCCCUUGCGGUACCAGAAAGCAGCGAGAGCGAGACCUGGGAGCCAGGGCAGGGGUGGCUGACCCCAUGCUUGGAAUUCUCGGGUGCCAA` — result for “RBNS enrichment (R)”: 0.662.
`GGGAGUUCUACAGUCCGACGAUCUUGUAUUUGUUUUAAGAAACAUUGGUUCCUAUGUAUUUUAGCAUUUUUGGUGAUUUCAAUUGACUUUGUUUCUUUUAGGUACUGUUUUUAUUGUUUUACUUAGAAUAUUAUGGAAUUCUCGGGUGCCAA`: “RBNS enrichment (R)” 0.542.

Study 3 — Compound: O=C1Cc2c([nH]c3ccc(Br)cc23)-c2ccccc2N1; observed: enzyme activity; mode: inhibitor; concentration: 0.5 µM; relative to: control
Ephrin type-A receptor 4 (EPHA4, Homo sapiens, UniProt P54764) — remaining activity: 96.1%.
Ribosomal protein S6 kinase alpha-5 (RPS6KA5, Homo sapiens, UniProt O75582) — remaining activity: 99.6%.
It gave 105% for remaining activity (Homeodomain-interacting protein kinase 4 (HIPK4, Homo sapiens, UniProt Q8NE63)).
For Cyclin-dependent kinase 1, with cyclin B (CDK1, Homo sapiens, UniProt P06493): remaining activity read 80.6%.
It gave 113% for remaining activity (Dual specificity tyrosine-phosphorylation-regulated kinase 3 (DYRK3, Homo sapiens, UniProt O43781)).
The remaining activity was 100% (MAP kinase-activated protein kinase 3 (MAPKAPK3, Homo sapiens, UniProt Q16644)).
The remaining activity was 95.5% (Serine/threonine-protein kinase WNK3 (WNK3, Homo sapiens, UniProt Q9BYP7)).

Study 4 — observed: cell-free assay; technique: competition with immobilised ligand; concentration: 1 µM
Structure (SMILES): CN(C(=O)c1ccccc1)c1cc(N(C)c2ccc3c(c2)CCc2ccc(C(=O)NCCN4CCOCC4)cc2C3=O)ccc1F
It gave 100% for remaining binding (SRSF protein kinase 2 (SRPK2, Homo sapiens, UniProt P78362)).
It gave 88% for remaining binding (Serine/threonine-protein kinase BRSK1 (BRSK1, Homo sapiens, UniProt Q8TDC3)).
It gave 87% for remaining binding (Tyrosine-protein kinase ABL1, non-phosphorylated (ABL1, Homo sapiens, UniProt P00519)).
It gave 100% for remaining binding (Rho-associated protein kinase 1 (ROCK1, Homo sapiens, UniProt Q13464)).
For Non-receptor tyrosine-protein kinase TNK1 (TNK1, Homo sapiens, UniProt Q13470): remaining binding read 94%.
The remaining binding was 79% (Mitogen-activated protein kinase kinase kinase 14 (MAP3K14, Homo sapiens, UniProt Q99558)).
For Hepatocyte growth factor receptor (MET, Homo sapiens, UniProt P08581): remaining binding read 77%.
For Serine/threonine-protein kinase Nek10 (NEK10, Homo sapiens, UniProt Q6ZWH5): remaining binding read 100%.
The remaining binding was 97% (Receptor-interacting serine/threonine-protein kinase 1 (RIPK1, Homo sapiens, UniProt Q13546)).
Tyrosine-protein kinase Srms (SRMS, Homo sapiens, UniProt Q9H3Y6) — remaining binding: 77%.
The remaining binding was 87% (Protein kinase C delta type (PRKCD, Homo sapiens, UniProt Q05655)).
The remaining binding was 100% (Myosin light chain kinase, smooth muscle (MYLK, Homo sapiens, UniProt Q15746)).
